Assay results of several laboratories.
A part holds a random share of what one study measured. Substitutions count along the parent as printed.
Sequence of UniProt P10721 (whole entry, unmodified, looked up): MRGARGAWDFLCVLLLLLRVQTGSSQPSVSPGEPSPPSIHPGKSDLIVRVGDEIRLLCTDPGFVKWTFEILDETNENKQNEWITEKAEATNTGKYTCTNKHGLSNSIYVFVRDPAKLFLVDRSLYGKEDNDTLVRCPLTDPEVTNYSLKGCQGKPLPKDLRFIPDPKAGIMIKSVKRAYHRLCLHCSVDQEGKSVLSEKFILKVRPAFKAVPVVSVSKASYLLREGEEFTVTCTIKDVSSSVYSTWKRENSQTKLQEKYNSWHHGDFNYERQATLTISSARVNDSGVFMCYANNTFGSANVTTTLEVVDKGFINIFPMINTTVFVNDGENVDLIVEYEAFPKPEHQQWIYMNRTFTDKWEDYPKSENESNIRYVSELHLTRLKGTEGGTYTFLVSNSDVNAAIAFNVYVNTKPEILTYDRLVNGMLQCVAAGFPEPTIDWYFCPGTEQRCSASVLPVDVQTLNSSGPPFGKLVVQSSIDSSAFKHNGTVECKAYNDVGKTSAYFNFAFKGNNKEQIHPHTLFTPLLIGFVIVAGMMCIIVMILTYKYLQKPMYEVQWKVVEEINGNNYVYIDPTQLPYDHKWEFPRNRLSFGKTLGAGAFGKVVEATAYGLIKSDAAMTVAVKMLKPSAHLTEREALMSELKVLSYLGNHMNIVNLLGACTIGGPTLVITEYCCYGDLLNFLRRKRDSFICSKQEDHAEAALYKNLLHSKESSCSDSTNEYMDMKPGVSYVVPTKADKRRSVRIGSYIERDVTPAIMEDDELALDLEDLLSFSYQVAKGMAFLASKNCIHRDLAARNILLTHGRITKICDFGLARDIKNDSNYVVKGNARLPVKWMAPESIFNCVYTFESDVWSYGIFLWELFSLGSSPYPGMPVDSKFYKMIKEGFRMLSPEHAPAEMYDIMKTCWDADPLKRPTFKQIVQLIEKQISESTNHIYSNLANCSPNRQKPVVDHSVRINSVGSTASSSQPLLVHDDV
Sequence of UniProt Q8IYT8 (whole entry, looked up): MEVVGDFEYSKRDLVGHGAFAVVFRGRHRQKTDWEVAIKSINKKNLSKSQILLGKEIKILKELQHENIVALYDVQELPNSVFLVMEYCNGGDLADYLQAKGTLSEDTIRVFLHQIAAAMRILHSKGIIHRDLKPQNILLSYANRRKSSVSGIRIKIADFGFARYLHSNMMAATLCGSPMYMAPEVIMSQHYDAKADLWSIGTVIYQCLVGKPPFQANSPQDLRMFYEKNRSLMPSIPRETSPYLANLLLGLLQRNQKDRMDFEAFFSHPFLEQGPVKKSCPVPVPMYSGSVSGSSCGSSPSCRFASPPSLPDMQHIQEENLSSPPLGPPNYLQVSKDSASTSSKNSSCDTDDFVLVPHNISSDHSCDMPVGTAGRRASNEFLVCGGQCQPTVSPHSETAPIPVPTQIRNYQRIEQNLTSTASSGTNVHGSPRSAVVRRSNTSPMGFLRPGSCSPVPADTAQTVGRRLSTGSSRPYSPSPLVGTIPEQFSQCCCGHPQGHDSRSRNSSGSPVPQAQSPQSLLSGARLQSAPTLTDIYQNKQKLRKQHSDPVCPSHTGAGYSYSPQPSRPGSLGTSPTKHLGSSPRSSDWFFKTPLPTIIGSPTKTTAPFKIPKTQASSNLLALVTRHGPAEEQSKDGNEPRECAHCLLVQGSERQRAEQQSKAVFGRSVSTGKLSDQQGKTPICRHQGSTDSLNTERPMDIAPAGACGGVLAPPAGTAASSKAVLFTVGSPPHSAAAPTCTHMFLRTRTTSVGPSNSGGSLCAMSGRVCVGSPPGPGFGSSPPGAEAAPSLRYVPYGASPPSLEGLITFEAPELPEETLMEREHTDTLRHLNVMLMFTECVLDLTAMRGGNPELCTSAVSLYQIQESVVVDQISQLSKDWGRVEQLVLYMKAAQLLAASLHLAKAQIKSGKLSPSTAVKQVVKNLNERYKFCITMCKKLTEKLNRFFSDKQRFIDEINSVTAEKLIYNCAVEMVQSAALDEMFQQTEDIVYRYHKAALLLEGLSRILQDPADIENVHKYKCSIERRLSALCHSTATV
Sequence of UniProt P52333 (whole entry, looked up): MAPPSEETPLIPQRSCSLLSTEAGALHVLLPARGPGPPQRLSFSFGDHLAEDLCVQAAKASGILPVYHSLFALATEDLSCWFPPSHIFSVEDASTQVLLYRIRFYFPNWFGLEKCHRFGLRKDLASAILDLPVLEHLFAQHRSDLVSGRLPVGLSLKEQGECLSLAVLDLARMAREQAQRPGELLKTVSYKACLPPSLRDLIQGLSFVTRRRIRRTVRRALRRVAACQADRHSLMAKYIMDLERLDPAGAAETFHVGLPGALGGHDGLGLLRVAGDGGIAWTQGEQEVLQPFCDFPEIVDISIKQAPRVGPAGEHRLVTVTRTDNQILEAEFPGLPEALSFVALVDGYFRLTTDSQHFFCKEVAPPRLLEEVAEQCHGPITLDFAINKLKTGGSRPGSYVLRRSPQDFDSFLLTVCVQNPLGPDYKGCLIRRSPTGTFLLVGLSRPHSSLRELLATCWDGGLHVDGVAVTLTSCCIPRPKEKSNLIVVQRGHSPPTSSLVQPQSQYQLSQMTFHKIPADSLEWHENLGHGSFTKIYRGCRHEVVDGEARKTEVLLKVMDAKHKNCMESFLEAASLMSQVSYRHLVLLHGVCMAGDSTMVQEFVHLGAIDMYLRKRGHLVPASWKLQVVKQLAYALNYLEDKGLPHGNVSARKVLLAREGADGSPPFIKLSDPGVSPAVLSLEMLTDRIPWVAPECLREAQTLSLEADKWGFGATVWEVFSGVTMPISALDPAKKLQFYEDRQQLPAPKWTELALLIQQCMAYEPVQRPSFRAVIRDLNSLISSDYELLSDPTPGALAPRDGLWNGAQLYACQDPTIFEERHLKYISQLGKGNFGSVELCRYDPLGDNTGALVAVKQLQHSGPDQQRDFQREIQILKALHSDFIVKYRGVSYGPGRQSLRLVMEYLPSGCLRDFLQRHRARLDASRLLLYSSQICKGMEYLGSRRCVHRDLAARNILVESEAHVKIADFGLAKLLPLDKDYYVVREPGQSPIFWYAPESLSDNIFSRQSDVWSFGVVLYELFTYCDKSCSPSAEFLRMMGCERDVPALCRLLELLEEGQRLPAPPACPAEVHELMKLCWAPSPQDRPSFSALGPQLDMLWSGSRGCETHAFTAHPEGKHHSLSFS
Sequence of UniProt P29320 (whole entry, looked up): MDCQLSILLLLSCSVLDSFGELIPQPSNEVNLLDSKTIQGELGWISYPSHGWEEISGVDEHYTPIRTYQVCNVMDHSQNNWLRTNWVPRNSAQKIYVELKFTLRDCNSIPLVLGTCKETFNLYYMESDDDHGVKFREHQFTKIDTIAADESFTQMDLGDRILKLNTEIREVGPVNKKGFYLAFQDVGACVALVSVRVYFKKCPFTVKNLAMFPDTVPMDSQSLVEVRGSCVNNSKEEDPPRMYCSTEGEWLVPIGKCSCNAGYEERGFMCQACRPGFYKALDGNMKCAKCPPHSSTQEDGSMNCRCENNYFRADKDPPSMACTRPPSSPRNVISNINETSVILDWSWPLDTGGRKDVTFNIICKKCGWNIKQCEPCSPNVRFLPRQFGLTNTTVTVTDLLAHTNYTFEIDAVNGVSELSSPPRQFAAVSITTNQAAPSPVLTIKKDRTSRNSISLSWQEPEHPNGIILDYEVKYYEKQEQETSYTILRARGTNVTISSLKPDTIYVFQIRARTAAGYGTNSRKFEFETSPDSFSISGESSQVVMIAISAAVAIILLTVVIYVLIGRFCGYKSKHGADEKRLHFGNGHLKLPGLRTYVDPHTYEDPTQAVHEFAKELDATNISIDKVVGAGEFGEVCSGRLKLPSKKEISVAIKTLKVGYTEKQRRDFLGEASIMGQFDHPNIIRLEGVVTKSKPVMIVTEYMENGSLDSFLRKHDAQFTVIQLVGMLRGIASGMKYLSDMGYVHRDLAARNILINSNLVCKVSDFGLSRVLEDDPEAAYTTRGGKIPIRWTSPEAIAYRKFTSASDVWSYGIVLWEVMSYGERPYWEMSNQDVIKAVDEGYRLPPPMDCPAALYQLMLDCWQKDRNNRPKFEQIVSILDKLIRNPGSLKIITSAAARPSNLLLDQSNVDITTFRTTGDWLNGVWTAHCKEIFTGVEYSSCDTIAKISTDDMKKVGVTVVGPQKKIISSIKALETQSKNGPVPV
Sequence of UniProt P78368 (whole entry, looked up): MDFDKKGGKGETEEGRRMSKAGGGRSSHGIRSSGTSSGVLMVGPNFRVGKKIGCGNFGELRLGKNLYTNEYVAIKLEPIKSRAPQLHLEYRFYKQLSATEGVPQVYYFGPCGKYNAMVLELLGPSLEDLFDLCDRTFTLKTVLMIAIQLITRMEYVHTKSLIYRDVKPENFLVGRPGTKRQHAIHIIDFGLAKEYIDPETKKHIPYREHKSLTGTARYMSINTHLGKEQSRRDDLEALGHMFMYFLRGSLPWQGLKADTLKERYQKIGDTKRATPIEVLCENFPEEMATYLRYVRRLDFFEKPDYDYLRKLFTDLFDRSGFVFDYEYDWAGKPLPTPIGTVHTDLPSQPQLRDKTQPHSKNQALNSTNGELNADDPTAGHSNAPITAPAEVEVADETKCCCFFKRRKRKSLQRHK
Sequence of UniProt P06239 (whole entry, looked up): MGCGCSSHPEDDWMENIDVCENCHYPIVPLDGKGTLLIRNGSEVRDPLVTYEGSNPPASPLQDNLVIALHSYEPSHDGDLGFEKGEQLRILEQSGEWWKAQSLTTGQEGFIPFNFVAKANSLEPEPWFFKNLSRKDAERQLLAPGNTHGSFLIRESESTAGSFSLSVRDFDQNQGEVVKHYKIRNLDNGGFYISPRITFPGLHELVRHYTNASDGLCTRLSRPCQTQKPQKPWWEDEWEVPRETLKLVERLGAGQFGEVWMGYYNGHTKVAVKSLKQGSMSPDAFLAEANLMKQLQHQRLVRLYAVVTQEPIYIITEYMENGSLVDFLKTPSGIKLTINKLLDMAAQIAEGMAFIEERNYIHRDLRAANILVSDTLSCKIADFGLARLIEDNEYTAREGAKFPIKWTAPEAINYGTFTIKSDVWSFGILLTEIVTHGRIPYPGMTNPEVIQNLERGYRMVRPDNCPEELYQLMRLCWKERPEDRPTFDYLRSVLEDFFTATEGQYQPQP

Block 1
Target: CCNA1, cyclin fold, Cln2 fusion (human)
Technique: yeast growth competition, sequencing
Matrix: yeast
Setting: strong parent motif
Baseline: not given
Reading: higher = stronger binding
Parent: RBL2 docking peptide (human); STTRRRLFVENDS
Change | normalised enrichment score
STTRRRLFVMNDS [E10M] | 0.584
STTRRRLFVENFS [D12F] | 0.353
STTRERLFVENDS [R5E] | 0.208
STTRRRLFVENDI [S13I] | 0.746
QTTRRRLFVENDS [S1Q] | 0.581
STTRRRNFVENDS [L7N] | 0.034
STTRRRLFVHNDS [E10H] | 0.406
STTRRRLFWENDS [V9W] | 0.764

Block 2
Structure (SMILES): CS(=O)(=O)NCC[C@H](NC(=O)c1cncc2c1cnn2-c1ccc(F)cc1)c1ccnc(S(C)(=O)=O)c1
Observed: cell-free assay
Technique: competition with immobilised ligand
Tested at: 1 µM
target | remaining binding [%]
BMX (Homo sapiens, UniProt P51813) | 100
BRSK1 (Homo sapiens, UniProt Q8TDC3) | 99
FGFR2 (Homo sapiens, UniProt P21802) | 100
EPHB1 (Homo sapiens, UniProt P54762) | 88
TAOK1 (Homo sapiens, UniProt Q7L7X3) | 82
Tyrosine-protein kinase ABL1, phosphorylated (ABL1, Homo sapiens, UniProt P00519, Q252H) | 100
KIT (Homo sapiens, UniProt P10721, A829P) | 83
STK4 (Homo sapiens, UniProt Q13043) | 100
ERBB3 (Homo sapiens, UniProt P21860) | 100
KIT (Homo sapiens, UniProt P10721, D816V) | 94
KIT (Homo sapiens, UniProt P10721) | 100
SGK3 (Homo sapiens, UniProt Q96BR1) | 100
RIPK1 (Homo sapiens, UniProt Q13546) | 99
MAP3K11 (Homo sapiens, UniProt Q16584) | 100
MAP2K2 (Homo sapiens, UniProt P36507) | 100
Tyrosine-protein kinase ABL1, non-phosphorylated (ABL1, Homo sapiens, UniProt P00519, H396P) | 97
CLK1 (Homo sapiens, UniProt P49759) | 93
EGFR (Homo sapiens, UniProt P00533, L861Q) | 100

Block 3
SMILES: O=C1NC(=O)/C(=C/c2ccc3nccnc3c2)S1
Observed: enzyme activity
Mode: inhibitor
Tested at: 0.5 µM
Baseline: control
target | remaining activity [%]
JAK3 (Homo sapiens, UniProt P52333) | 97.2
FRK (Homo sapiens, UniProt P42685) | 91.7
EPHA3 (Homo sapiens, UniProt P29320) | 97.1
ABL2 (Homo sapiens, UniProt P42684) | 96.8
ULK3 (Homo sapiens, UniProt Q6PHR2) | 102
NEK1 (Homo sapiens, UniProt Q96PY6) | 73.6
TEK (Homo sapiens, UniProt Q02763) | 89.5
ARAF (Homo sapiens, UniProt P10398) | 103
ULK2 (Homo sapiens, UniProt Q8IYT8) | 104
FGFR1 (Homo sapiens, UniProt P11362) | 88.5
MAPKAPK2 (Homo sapiens, UniProt P49137) | 97.7
CSNK1G2 (Homo sapiens, UniProt P78368) | 83.4
TBK1 (Homo sapiens, UniProt Q9UHD2) | 90.6
LCK (Homo sapiens, UniProt P06239) | 98.6

Block 4
Target: PABPC1L2, full length, GST fusion (mouse, UniProt A0ABA7IW68)
Technique: RNAcompete
Form: RNA
Matrix: in vitro
Tested at: 20 nM
Setting: 7-mer, probes averaged, single round
Baseline: mean of 7-mers
Reading: higher = stronger binding
Construct (chain): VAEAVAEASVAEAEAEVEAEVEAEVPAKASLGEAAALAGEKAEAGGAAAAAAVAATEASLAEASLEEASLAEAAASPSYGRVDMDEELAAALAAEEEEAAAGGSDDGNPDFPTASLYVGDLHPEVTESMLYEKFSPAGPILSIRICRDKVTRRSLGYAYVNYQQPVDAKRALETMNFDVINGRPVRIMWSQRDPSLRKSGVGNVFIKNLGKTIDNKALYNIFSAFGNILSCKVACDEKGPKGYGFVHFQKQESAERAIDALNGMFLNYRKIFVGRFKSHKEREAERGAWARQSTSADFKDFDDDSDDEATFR
Oligonucleotide | 7-mer Z-score
AAAAUAC | 5.27
CACGGUA | 0.00436
AGAAGCU | -0.132
UAAUGGU | -0.195
AGCCGUA | -0.269
GUCGAAC | -0.217
AGUCGGC | -0.159
AUCCUAC | -0.202

For quick reference, copied from above (block 4):
Oligonucleotide | 7-mer Z-score
CACGGUA | 0.00436
AGAAGCU | -0.132
UAAUGGU | -0.195
AGCCGUA | -0.269
